# Assay results of several laboratories.
# Cell line: Vero
SMILES,effect on,method,tested at,time,quantity,value
N#Cc1cc(C#N)c(=O)n(NS(=O)(=O)c2ccccc2)c1N,,,,72 h,maximum non-toxic concentration,100 µg/mL
Nc1nc(NS(=O)(=O)c2ccccc2)nc(-c2ccc(F)cc2)c1-c1nc2ccccc2s1,cytotoxicity,,,72 h,maximum non-toxic concentration,100 µg/mL
CCSc1c(-c2nc3ccccc3s2)c(N)n(NS(=O)(=O)c2ccccc2)c(=O)c1C#N,,,,72 h,maximum non-toxic concentration,120 µg/mL
CC[C@@H](C)[C@H]1O[C@@H](c2c(O)c(-c3ccccc3)cn(O)c2=O)[C@H](C)C[C@@H]1C,,neutral red,concentration not given,,cytotoxicity,toxic
CCN(CC)CCCC(C)Nc1ccnc2cc(Cl)ccc12 (stereo not shown),cytotoxicity,Neutral Red uptake,,48 h,IC50,> 4.76 µg/mL
CSc1nc(NS(=O)(=O)c2ccc(C)cc2)nc(N)c1-c1nc2ccccc2s1,cytotoxicity,,,72 h,maximum non-toxic concentration,100 µg/mL
CCN(CC)CCCC(C)Nc1ccnc2cc(Cl)ccc12 (stereo not shown),cytotoxicity,neutral red,,48 h,IC50,> 4.76 µg/mL
Cc1ccc(S(=O)(=O)Nn2c(N)c(-c3nc4ccccc4s3)c3[nH]nc(N)c3c2=O)cc1,,,,72 h,maximum non-toxic concentration,90 µg/mL
CC[C@]1(O)C[C@@H]2CN(CCc3c([nH]c4ccccc34)[C@@](C(=O)OC)(c3cc4c(cc3OC)N(C)[C@H]3[C@@](O)(C(=O)OC)[C@H](OC(C)=O)[C@]5(CC)C=CCN6CC[C@]43[C@@H]65)C2)C1,,Alamar Blue,,96 h,CC50,< 0.34 µM
Cc1ccc(S(=O)(=O)Nc2nc(N)c(-c3nc4ccccc4s3)c(-c3ccccc3)n2)cc1,cytotoxicity,,,72 h,maximum non-toxic concentration,90 µg/mL
COn1cc(-c2ccccc2)c(O)c([C@@H]2O[C@H]([C@H](C)CCO)[C@@H](C)C[C@H]2C)c1=O,cytotoxicity,neutral red,,48 h,IC50,> 4.76 µg/mL
O=C(Nc1cccc2c(=O)cc(-c3nnn[nH]3)oc12)c1ccc(OCCCCc2ccccc2)cc1,,Alamar Blue,,96 h,CC50,66.8 µM
Cc1ccc(C(=O)CNc2nc(NS(=O)(=O)c3ccccc3)ncc2-c2nc3ccccc3s2)cc1,cytotoxicity,,,72 h,maximum non-toxic concentration,100 µg/mL
CC1=C(/C=C/C(C)=C/C=C/C(C)=C/C=C/C=C(C)/C=C/C=C(C)/C=C/C2=C(C)CCCC2(C)C)C(C)(C)CCC1,,Alamar Blue,,96 h,CC50,139 µM
COc1ccc(-c2nc(NS(=O)(=O)c3ccc(C)cc3)nc(N)c2-c2nc3ccccc3s2)cc1,cytotoxicity,,,72 h,maximum non-toxic concentration,90 µg/mL
COc1ccc2c(Cc3ccccc3F)c3[n+](cc2c1OC)CCc1cc2c(cc1-3)OCO2,cytotoxicity,CCK-8,,24 h,IC50,32.8 µM
Nc1nc(NS(=O)(=O)c2ccccc2)ncc1-c1nc2ccccc2s1,cytotoxicity,,,72 h,maximum non-toxic concentration,100 µg/mL
CO[C@H]1C[C@@H]2CC[C@@H](C)[C@@](O)(O2)C(=O)C(=O)N2CCCC[C@H]2C(=O)O[C@H]([C@H](C)C[C@@H]2CC[C@@H](O)[C@H](OC)C2)CC(=O)[C@H](C)/C=C(\C)[C@@H](O)[C@@H](OC)C(=O)[C@H](C)C[C@H](C)/C=C/C=C/C=C/1C,,Alamar Blue,,96 h,CC50,16.3 µM
CSc1c(-c2nc3ccccc3[nH]2)c(N)n(NS(=O)(=O)c2ccccc2)c(=O)c1C#N,,,,72 h,maximum non-toxic concentration,100 µg/mL
CC(C)(C)[C@@H]1NC(=O)O[C@@H]2CCC[C@H]2OC/C=C/C(F)(F)c2nc3ccccc3nc2O[C@@H]2C[C@@H](C(=O)N[C@]3(C(=O)NS(=O)(=O)C4(C)CC4)C[C@H]3C(F)F)N(C2)C1=O,,Alamar Blue,,96 h,CC50,38.9 µM
Cc1ccc(S(=O)(=O)Nc2ncc(-c3nc4ccccc4s3)c(N)n2)cc1,cytotoxicity,,,72 h,maximum non-toxic concentration,110 µg/mL
Cc1ccc(S(=O)(=O)Nn2c(N)c(C#N)cc(C#N)c2=O)cc1,,,,72 h,maximum non-toxic concentration,90 µg/mL
CO[C@@]1(NC(=O)C2SC(=C(C(N)=O)C(=O)O)S2)C(=O)N2C(C(=O)O)=C(CSc3nnnn3C)CS[C@@H]21 (stereo partly shown),,Alamar Blue,,96 h,CC50,> 400 µM
COc1cccc2c1C(=O)c1c(O)c3c(c(O)c1C2=O)C[C@@](O)(C(=O)CO)C[C@@H]3O[C@H]1C[C@H](N)[C@H](O)[C@H](C)O1,cytotoxicity,neutral red,,48 h,IC50,> 5 µg/mL
CCOC(=O)c1cc(C#N)c(=O)n(NS(=O)(=O)c2ccccc2)c1N,,,,72 h,maximum non-toxic concentration,90 µg/mL

# Excerpt of the above:
SMILES,effect on,method,tested at,time,quantity,value
CCSc1c(-c2nc3ccccc3s2)c(N)n(NS(=O)(=O)c2ccccc2)c(=O)c1C#N,,,,72 h,maximum non-toxic concentration,120 µg/mL
Cc1ccc(C(=O)CNc2nc(NS(=O)(=O)c3ccccc3)ncc2-c2nc3ccccc3s2)cc1,cytotoxicity,,,72 h,maximum non-toxic concentration,100 µg/mL
